Measurements collected from several papers.
Each line is one published result; not all experiments were run side by side. “And” joins repeats or separate records; there may be more than shown. Numbers after ± are the reported error.

O=C(O)/C=C/c1cccc(S(=O)(=O)Nc2ccccc2)c1
half-life (human, mild liver dysfunction, plasma; intravenous, 400 mg/m^2 belinostat, 30 min infusion, cycle 1 day -7): 2.52 h

CC(=O)N[C@H](CC(=O)O)C(=O)N[C@H](Cc1c[nH]c2ccccc12)C(=O)N[C@H](Cc1ccccc1)C(=O)N[C@H](CCCCN)C(=O)N[C@H](C)C(=O)N[C@H](Cc1ccccc1)C(=O)N[C@H](Cc1ccc(O)cc1)C(=O)N[C@H](CC(=O)O)C(=O)N[C@H](CCCCN)C(=O)N[C@@H](C(=O)N[C@H](C)C(=O)N[C@H](CCC(=O)O)C(=O)N[C@H](CCCCN)C(=O)N[C@H](Cc1ccccc1)C(=O)N[C@H](CCCCN)C(=O)N[C@H](CCC(=O)O)C(=O)N[C@H](C)C(=O)N[C@H](Cc1ccccc1)C(N)=O)C(C)C
half-life (human, statin-treated high-risk CHD, both sexes, plasma; oral, 500 mg daily, day 13, median, detected subjects only): 1.88 h

CONC(=O)/C=C/c1cccc(S(=O)(=O)Nc2ccccc2)c1
half-life (human, mild liver dysfunction, plasma; intravenous, 400 mg/m^2 belinostat, 30 min infusion, cycle 1 day -7): 1.34 h

O=C(CCc1ccc(CNC(C(=O)OC2CCCC2)C2CCCCC2)cn1)NO (stereo not drawn)
half-life (human, plasma; oral, 50 mg, single dose, geometric mean): 0.366 h

CC(C)(O)c1ncc([S@](N)(=O)=NC(=O)Nc2c3c(cc4c2CCC4)CCC3)s1
half-life (healthy human volunteers, plasma; oral, 50 mg twice daily, day 14, fed, enteric-coated tablet): 16.2 h

O=C(O[C@@H]1Cc2c(O)cc(O)cc2O[C@@H]1c1cc(O)c(O)c(O)c1)c1cc(O)c(O)c(O)c1
half-life (human, male, plasma; oral, 135 mg, catechin-rich beverage): 2.1 ± 0.46 h

CCCCCCCOc1ccc(CC[C@](N)(CO)COP(=O)(O)O)cc1C(F)(F)F
half-life (healthy male humans, plasma; oral, 0.125 to 0.75 mg, mean): 376 to 404 h

NC(=O)/C=C/c1cccc(S(=O)(=O)Nc2ccccc2)c1
half-life (human, normal liver function, plasma; intravenous, 400 mg/m^2 belinostat, 30 min infusion, cycle 1 day -7): 5.08 h

Cc1nc(C)c(C=[N+]([O-])C(C)(C)C)nc1C
half-life (healthy Chinese human, both sexes, serum; oral, 1200 mg twice daily, 7 days): 2.3 h

Cn1c(=O)oc2ccc(-c3ccc(CC(C#N)NC(=O)C4CNCCCO4)c(F)c3)cc21 (stereo not drawn)
half-life (human, plasma; 40 mg once daily, day 28, mean): 26.5 h

O=C(O)c1cccc(S(=O)(=O)Nc2ccccc2)c1
half-life (human, normal liver function, plasma; intravenous, 400 mg/m^2 belinostat, 30 min infusion, cycle 1 day -7): 4.4 h

Cc1[nH]nc2c1N=C(c1ccccc1Cl)c1cnc(N3CCOCC3)cc1N2
half-life (item: total radioactivity; human male, plasma; oral, 10 mg): 35.5 h and 23.7 h

Repeated from above:
Cn1c(=O)oc2ccc(-c3ccc(CC(C#N)NC(=O)C4CNCCCO4)c(F)c3)cc21 (stereo not drawn)
half-life (human, plasma; 40 mg once daily, day 28, mean): 26.5 h
